Measured values from different studies.
A part holds a random share of what one study measured. Values joined by “and” are separate records of one study, mostly repeats; a detail may differ. pEC50: −log10 of the molar value.
Chain of UniProt Q96NX5 (whole entry, looked up): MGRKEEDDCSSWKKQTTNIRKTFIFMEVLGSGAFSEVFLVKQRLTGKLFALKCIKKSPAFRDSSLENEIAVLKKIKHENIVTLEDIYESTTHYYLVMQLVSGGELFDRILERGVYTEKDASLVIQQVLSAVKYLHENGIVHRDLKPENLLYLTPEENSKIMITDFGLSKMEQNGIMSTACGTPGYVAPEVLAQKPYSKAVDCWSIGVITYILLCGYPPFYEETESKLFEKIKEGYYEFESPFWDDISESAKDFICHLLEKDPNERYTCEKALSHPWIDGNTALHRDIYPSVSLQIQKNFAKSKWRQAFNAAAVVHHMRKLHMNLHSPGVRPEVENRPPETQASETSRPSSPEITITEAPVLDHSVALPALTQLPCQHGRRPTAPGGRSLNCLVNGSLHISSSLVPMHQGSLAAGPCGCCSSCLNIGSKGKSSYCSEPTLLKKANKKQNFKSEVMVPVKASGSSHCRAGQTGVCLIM
Chain of UniProt Q15139 (whole entry, looked up): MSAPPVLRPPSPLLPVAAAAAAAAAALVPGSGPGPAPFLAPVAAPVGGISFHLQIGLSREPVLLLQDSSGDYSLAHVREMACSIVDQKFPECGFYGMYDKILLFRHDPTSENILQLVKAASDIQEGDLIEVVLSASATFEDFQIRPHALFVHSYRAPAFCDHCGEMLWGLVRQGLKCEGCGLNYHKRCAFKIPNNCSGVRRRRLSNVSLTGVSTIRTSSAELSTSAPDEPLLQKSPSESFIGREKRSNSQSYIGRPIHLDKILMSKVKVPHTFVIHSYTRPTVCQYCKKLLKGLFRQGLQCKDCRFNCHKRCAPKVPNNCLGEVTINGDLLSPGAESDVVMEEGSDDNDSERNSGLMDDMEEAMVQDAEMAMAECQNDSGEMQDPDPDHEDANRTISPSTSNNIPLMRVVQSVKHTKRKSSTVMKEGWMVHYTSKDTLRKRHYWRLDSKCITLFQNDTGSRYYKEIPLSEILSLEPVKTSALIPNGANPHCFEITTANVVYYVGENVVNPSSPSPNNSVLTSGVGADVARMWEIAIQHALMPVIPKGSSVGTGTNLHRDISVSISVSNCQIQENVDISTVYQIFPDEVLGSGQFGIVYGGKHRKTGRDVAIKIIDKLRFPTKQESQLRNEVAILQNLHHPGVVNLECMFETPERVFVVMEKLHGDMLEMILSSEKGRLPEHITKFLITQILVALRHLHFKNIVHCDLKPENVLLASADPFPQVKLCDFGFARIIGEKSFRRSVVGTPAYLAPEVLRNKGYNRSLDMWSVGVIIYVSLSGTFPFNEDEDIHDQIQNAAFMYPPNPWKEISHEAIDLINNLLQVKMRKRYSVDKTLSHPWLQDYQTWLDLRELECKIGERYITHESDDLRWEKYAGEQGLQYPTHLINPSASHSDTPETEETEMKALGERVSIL
Chain of UniProt Q09013 (whole entry, looked up): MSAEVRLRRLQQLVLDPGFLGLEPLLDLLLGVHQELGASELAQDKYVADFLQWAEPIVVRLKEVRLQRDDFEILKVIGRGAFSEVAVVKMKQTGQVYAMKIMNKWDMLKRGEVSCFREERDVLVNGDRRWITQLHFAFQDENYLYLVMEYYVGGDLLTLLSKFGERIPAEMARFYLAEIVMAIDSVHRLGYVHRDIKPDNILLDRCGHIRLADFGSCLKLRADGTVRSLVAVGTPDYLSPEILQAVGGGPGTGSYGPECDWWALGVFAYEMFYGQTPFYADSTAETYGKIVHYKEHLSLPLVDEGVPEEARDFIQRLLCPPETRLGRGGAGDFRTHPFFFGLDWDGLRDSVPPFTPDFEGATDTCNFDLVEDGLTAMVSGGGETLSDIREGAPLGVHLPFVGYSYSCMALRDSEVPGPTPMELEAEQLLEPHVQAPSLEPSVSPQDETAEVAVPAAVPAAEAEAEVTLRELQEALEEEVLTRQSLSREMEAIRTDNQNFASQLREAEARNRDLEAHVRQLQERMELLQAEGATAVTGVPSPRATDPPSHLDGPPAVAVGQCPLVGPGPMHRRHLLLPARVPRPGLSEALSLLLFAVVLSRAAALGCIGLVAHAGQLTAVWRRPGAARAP
Chain of UniProt P28482 (whole entry, looked up): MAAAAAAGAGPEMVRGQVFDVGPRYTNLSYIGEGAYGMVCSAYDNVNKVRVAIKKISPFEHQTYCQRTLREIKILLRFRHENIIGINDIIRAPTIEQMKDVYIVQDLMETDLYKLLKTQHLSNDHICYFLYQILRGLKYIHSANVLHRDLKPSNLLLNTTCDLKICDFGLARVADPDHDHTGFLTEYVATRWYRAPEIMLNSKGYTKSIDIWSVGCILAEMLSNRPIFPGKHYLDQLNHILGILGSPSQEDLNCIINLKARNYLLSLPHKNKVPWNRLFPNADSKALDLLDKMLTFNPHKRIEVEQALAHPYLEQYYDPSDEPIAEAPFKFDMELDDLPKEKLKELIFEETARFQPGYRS
Chain of UniProt P34947 (whole entry, looked up): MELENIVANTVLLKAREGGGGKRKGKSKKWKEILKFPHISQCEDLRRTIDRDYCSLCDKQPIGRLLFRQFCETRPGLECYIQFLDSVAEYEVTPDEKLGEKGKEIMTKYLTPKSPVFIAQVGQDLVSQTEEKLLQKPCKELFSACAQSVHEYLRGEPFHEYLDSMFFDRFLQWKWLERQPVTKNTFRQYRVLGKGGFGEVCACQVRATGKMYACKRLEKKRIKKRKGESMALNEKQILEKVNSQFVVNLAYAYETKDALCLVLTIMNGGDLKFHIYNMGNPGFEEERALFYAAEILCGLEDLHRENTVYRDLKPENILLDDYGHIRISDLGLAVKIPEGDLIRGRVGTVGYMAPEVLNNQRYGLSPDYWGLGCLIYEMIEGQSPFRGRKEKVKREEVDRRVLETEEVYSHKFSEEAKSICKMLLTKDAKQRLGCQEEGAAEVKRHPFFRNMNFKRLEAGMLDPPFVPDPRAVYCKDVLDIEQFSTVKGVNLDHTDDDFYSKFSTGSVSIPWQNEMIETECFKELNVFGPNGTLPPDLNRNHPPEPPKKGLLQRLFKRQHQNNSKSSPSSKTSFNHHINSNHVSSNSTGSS
Chain of UniProt Q9H2G2 (whole entry, looked up): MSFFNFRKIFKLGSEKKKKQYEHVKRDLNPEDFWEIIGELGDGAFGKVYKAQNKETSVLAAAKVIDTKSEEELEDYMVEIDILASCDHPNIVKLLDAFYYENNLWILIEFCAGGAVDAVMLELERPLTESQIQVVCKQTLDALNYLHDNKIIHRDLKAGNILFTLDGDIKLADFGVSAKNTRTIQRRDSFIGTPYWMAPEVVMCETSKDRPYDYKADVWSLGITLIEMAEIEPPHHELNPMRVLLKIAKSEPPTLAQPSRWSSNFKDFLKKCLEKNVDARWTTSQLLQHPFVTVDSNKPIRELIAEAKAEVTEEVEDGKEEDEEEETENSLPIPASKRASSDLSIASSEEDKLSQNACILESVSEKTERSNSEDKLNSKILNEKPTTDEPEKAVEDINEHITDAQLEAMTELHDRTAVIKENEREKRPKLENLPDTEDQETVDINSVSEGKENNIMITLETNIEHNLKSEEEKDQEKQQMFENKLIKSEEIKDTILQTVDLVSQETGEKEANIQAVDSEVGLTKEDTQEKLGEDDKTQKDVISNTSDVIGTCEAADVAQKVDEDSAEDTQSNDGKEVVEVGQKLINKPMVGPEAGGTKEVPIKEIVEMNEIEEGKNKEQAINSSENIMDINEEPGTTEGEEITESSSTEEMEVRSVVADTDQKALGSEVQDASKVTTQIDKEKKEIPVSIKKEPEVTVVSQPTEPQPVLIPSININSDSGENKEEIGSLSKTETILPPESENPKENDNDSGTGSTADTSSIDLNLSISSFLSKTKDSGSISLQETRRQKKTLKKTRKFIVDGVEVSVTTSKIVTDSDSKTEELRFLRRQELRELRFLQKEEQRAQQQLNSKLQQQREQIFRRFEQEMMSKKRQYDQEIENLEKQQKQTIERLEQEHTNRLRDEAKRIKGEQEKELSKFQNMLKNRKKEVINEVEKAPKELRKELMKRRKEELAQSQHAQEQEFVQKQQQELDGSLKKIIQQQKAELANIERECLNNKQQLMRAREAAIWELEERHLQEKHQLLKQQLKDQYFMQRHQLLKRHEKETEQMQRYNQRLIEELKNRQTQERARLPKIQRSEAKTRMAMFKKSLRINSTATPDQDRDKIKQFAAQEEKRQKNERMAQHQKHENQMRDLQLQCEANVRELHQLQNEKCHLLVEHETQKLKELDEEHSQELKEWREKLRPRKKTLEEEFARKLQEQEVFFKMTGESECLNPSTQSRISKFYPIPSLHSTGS
Chain of UniProt P50613 (whole entry, looked up): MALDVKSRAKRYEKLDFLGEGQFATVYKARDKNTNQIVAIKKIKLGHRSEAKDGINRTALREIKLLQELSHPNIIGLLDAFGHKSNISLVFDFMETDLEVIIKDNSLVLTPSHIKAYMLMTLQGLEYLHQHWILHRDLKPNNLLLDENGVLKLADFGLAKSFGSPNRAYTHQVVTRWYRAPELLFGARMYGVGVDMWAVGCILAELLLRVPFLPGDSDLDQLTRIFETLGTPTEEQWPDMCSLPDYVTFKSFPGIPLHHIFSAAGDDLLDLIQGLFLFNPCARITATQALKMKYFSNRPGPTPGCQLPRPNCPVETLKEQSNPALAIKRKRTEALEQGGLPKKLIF
Chain of UniProt P27361 (whole entry, looked up): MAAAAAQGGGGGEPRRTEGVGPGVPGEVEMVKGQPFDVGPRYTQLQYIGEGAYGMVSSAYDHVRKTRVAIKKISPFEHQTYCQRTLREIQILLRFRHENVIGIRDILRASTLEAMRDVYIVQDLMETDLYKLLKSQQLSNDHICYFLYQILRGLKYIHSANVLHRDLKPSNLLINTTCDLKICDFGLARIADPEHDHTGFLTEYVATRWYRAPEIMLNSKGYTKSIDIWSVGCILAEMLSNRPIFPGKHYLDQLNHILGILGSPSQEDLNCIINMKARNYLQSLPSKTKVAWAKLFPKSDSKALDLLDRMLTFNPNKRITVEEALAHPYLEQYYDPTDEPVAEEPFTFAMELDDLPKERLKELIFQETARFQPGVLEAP

Block 1
SMILES: C[C@H](NC(=O)Nc1cc2[nH]ncc2c(CO)n1)c1ccccn1
Effect on: target engagement in cells
Method: BRET
target | pEC50
MAPK1 (Homo sapiens, UniProt P28482) | 4.74
MAPK3 (Homo sapiens, UniProt P27361) | 5.17
GSK3B (Homo sapiens, UniProt P49841) | < 4.30

Block 2
Host: human
Matrix: microsomes or S9
Tested at: 2 µM
Time: 0.5 h
Structure (SMILES) | remaining compound [%]
CCc1cnc(NCCCn2ccnc2CC)nc1 | 97.7
CC(C)c1nc(OCCCN(C)C)c(C#N)c2c1CCCC2 | 50.2
COC(=O)c1ncn2c1C(=O)OC(COc1ccccc1)C2 (stereo not drawn) | 2.64
CCn1cnnc1-c1nn(C)c2c1CN(C(=O)c1ccc(Cc3c(C)n[nH]c3C)o1)CC2 | 48.2
COC(=O)c1ccc(CCC(C)NCC(O)c2cccc(Cl)c2)o1 (stereo not drawn) | 4.99
Cc1cc(-c2cnc(C)nc2-c2sccc2C)on1 | 63.4
Cc1cc2n(n1)CC(CNC(C)COc1ccc(F)cc1F)CN2 (stereo not drawn) | > 100

Block 3
Cell line: mouse MPNST tumor cells
Method: high-content nuclear imaging
Measured: cell number
Tested at: 10 µM
Time: 12 h
Notes: mean of 2 replicates
Reference: plate mean
Direction: higher = more cells
Structure (SMILES) | nuclei count
COC(=O)Nc1nc2cc(C(=O)c3cccs3)ccc2[nH]1 | -4 z-score and -5.49 z-score
O=C(O)Cc1cc(I)c(Oc2ccc(O)c(I)c2)c(I)c1 | 2.29 z-score
C=C(C)[C@@H]1CC[C@]2(C(=O)O)CC[C@]3(C)[C@H](CC[C@@H]4[C@@]5(C)CC[C@H](O)C(C)(C)[C@@H]5CC[C@]43C)[C@@H]12 | 2.31 z-score
COc1ccc(Cl)cc1C(=O)NCCc1ccc(S(=O)(=O)NC(=O)NC2CCCCC2)cc1 | 1.64 z-score and 1.19 z-score
COc1cccc(OC)c1-c1cc(C(=O)NC(CC(C)C)C(=O)O)nn1-c1ccnc2cc(Cl)ccc12 (stereo not drawn) | 1.73 z-score
CC(C)n1c(=O)n(C(=O)NC2CC3CCC(C2)N3C)c2ccccc21 (stereo not drawn) | 4.51 z-score

Block 4
SMILES: O=c1cc(N2CCOCC2)oc2c1ccc1ccccc12
Effect on: enzyme activity
Mode: inhibitor
Tested at: 0.5 µM
Reference: control
target | remaining activity
DYRK4 (Homo sapiens, UniProt Q9NR20) | 91.9%
EGFR (Homo sapiens, UniProt P00533) | 96.2%
RET (Homo sapiens, UniProt P07949) | 99.8%
GRK5 (Homo sapiens, UniProt P34947) | 106%
HIPK3 (Homo sapiens, UniProt Q9H422) | 107%
SLK (Homo sapiens, UniProt Q9H2G2) | 102%
PTK2B (Homo sapiens, UniProt Q14289) | 94.3%
CAMK1G (Homo sapiens, UniProt Q96NX5) | 102%
NTRK3 (Homo sapiens, UniProt Q16288) | 103%
CSNK2A2 (Homo sapiens, UniProt P19784) | 78.6%
MAP3K2 (Homo sapiens, UniProt Q9Y2U5) | 109%
Cyclin-dependent kinase 2, with cyclin A (CDK2, Homo sapiens, UniProt P24941) | 100%
PKN2 (Homo sapiens, UniProt Q16513) | 93.2%
MAP3K8 (Homo sapiens, UniProt P41279) | 98.3%
ROS1 (Homo sapiens, UniProt P08922) | 97%
PRKD1 (Homo sapiens, UniProt Q15139) | 102%
CDK7 (Homo sapiens, UniProt P50613) | 98.2%
ROCK2 (Homo sapiens, UniProt O75116) | 95.9%
MAPK10 (Homo sapiens, UniProt P53779) | 73.8%
DMPK (Homo sapiens, UniProt Q09013) | 105%
Aurora kinase A (AURKA, Homo sapiens, UniProt O14965) | 98%

Block 5
Organism: Sarcocystis neurona
Effect on: parasite growth
Tested at: 10 µM
Reference: untreated
SMILES | log2 fold change
CCCc1nc(C)c2c(=O)[nH]c(-c3cc(S(=O)(=O)N4CCN(CC)CC4)ccc3OCC)nn12.O=C(O)CC(O)(CC(=O)O)C(=O)O | 0.36
COc1cc(C[C@@H](CO)[C@H](CO)Cc2ccc(O)c(OC)c2)ccc1O | 0.3
CC(C)[N+](C)(CCOC(=O)C1c2ccccc2Oc2ccccc21)C(C)C.[Br-] | 0.37
CCN1CC(CCN2CCOCC2)C(c2ccccc2)(c2ccccc2)C1=O.Cl (stereo not drawn) | 0.33

Mixed results
SMILES | host | dose | time | endpoint | result
CN1CC[C@H](c2c(O)cc(O)c3c(=O)cc(-c4ccccc4Cl)oc23)[C@H](O)C1 | nude mouse, HH xenograft | dose not given | day 0 | tumour volume | 0 mm³

Some of these lines once more (block 2):
Structure (SMILES) | remaining compound [%]
Cc1cc(-c2cnc(C)nc2-c2sccc2C)on1 | 63.4
CCn1cnnc1-c1nn(C)c2c1CN(C(=O)c1ccc(Cc3c(C)n[nH]c3C)o1)CC2 | 48.2
Cc1cc2n(n1)CC(CNC(C)COc1ccc(F)cc1F)CN2 (stereo not drawn) | > 100
CCc1cnc(NCCCn2ccnc2CC)nc1 | 97.7
